Published values pooled from the literature.
A part holds a random share of what one study measured.

Sample 1 — method: RNA Bind-n-Seq; form: RNA; sample: in vitro; tested at: 365 nM; baseline: no-protein control; reading: higher = stronger binding; measurement: RBNS enrichment (R)
Target: RNA binding protein fox-1 homolog 2, RRM domain, GST-SBP tag (RBFOX2, Homo sapiens, UniProt O43251-10, residues 100-194)
Setting: natural RNA segment, single round, ends assumed
Constant ends, left off below: GGGAGUUCUACAGUCCGACGAUC … UGGAAUUCUCGGGUGCCAA
CAGGCUGUGUCCGAGCUGUGUCACAUGCAGCUCUACCCACGCUUUUAAACUCAGGAAUGCACACCUAACUUGUGAAGCAGUAUUAAUGGAUCUGAAAGCAACAAUCGCCA: 0.479
UAGAGCUUAGAUUUCCCUAUUGUGACAGAGCCAUGGUGUGUUUGUAAUAAUAAAACCAAAGAAACAUACGUCCUGUGUGCAUGGUACAGUGUGCUGACCUGAGGCCGUCA: 0.843
AGCUUCAGACCCGGAGAUGUUGUUCACGCCCUUGCCCUGUGCCCACCUCUUCUCUUCCUGCCCGGCUCUGCUUCUGUGUCUUGAUGUCAGCUCACACAAUUCCAAAGGAA: 0.828
AGGCUGGGCGGCCAGCCUUGCACUAUGUCCCAGCCCCACUACUGAACACUACUGACUUAGACUGCUGACUGCCAGAGGUAGCUACCCUCAUGCCAUCGCCAUGACCCCCC: 0.709
GCCUUCUUUAUAAAAUAAGUGUAAGUUGUUCAGCCUGCCUCACAGGGCUGUUGUGAGGAAAUAAAAUGAAAUGGAGUAUGUGAAAUUGCUUCAGCAACAGCAAAGUGCUA: 1.07
GGCAGGACCUUAUGCUCAGAAAUCUUUGUAUAGUUUUAAAUUUUUGAGGAGUAUCUCUGCUCGGAAGCAUCUGUGGUGGUGUGAUGUGUUGUUCUGUGUACUGUAUGUGA: 2.59
AGGUCCUGCCCAUCGGGCACAUGUCUCAAGCCCAUGGGGAGCAUAGCAGUCCGGGAGGCUGUGGAAAUGUUUAUUUAUAUUGUCCUUUUUUACCGAAGACAUGCAUACUC: 1.09
UUUCUGAAGCCUGCUUUUAUACCGGAUGUUCUAUAAAUUAUAACUUUUAAAGUUGGGCUUUUUAAUUACUUUACAAAUACCCAUGAGUGGGACAGAUGUUCUGAACCUGG: 0.556
AAAAUUUGAGGCAAAUUUUUUUAAAUGACAGAAAAAGAUAAUCAUCUCACUUGCUUGAAACAGGAGCCAGCAUGAUCUCUGGAAGCAUCAACUAUCCCUCGUCGUGAUUG: 3.62
UUUUUAAUGAUCAGCUUUUCUGUUUAUUGUAAAACUAAGUUAAAAAAUAAAAGGUUAAUGAGAAAUGAAAUGCUAACUGUAUUGACUGUGUACAAAGCUAAAGCAAGAAG: 1.13
UGGCCGCUGAGUGGCAGGGGACAGGAGUCCACUUUGUUUCGUGGGGAGGUCUAAUCUAGAUAUCGACUUGUUUUUGCACAUGUUUCCUCUAGUUCUUUGUUCAUAGCCCA: 0.434
GAUUCCCAAACCUUGUUGCAAGUUUUUGCAUUGGCAUCUUUGGAUUUCAGUCUUGAUGUUUGUUCUAUCAGACUUAACCUUUUAUUUCCUGUCCUUCCUUGAAAUUGCUG: 0.51

Sample 2 — method: RNA Bind-n-Seq; form: RNA; sample: in vitro; tested at: not given; baseline: input RNA pool; reading: higher = stronger binding; measurement: bound/input enrichment
Target: RING finger protein unkempt homolog, zinc fingers 1-6, GST-SBP tag (UNK, Homo sapiens, UniProt Q9C0B0, residues 30-357)
Setting: RNA with constant flanks, human-mouse chimeric sites, ends assumed
Constant ends, left off below: GGGAGUUCUACAGUCCGACGAUC … CAACAGAGGAUUGAGCAUCA
Residues (chain): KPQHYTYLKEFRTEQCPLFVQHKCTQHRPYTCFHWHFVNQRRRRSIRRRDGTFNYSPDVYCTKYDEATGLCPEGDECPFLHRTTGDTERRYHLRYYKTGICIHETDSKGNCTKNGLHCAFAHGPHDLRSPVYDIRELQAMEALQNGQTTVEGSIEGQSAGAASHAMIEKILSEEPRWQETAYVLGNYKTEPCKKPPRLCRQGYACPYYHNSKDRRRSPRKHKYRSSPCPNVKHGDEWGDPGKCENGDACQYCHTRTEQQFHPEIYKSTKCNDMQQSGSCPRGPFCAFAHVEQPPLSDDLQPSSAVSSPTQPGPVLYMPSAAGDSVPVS
GGAUUCCGCUUCCGGUUCCGUUGGGCUCGGUUCUCUCCUGAGCUACGUGUCUCUACGUUUUAGGUGUGCCAUCCAACAAACAUGGAUCAGGUAAUGCAGUUUGUGGAGCCCAGCCGGCAG: 0.0766 ratio
GAUGAUAAUCACACAAAUGUGGCACUUUUACAUGACCAGAGUUGUACUUCUUUUCCUGAUUAAUAUUCUCCCUGGAACCACUGGUCAAGGGGAAUCAAGACGACAAGAACCCGGGGACUU: 0.205 ratio
AGAUUCCCCCUCCUGAGACCUCCUCCGAAGUUGGAGUCUCUUACAGAUGCCUCAUCCCCUGUUAGCGUUUUGGUCUGGACCACCCAGCCUUGGACAAUUCCAGCCAACCAGGCAAUUUGC: 0.497 ratio
CAGGGCAUCAUCUCUCGAGCUGUUAAACACCUGUUCAAGAGUAUUGAUGAGAAAAAGACCUCAGCGAUUAAAAACGGGCUGCCCCCUCCUGAAUUCAAAGUGAAUGCCCAAUUCUUAGAG: 0.648 ratio
AAAGUGAUGACUAUGUUUGUCCAACGACAGGUAUUUUCGGAGAGCAAGGAUGAGAUUGCGUUAGUCCUCUAUGGCACAGAUGGCACUGAUAAUGCCCUUGCUGGCAAGGAUCAGUAUCAG: 0.13 ratio
AGAGAUAAGACAUCCAGGAACAUGCGAGGGUCACGGAUGAAUGGGUUGCCUAGCCCCACUCACAGCGCCCACUGUAGCUUCUACCGAACCAGAACCUUGCAGGCACUAAGUAAUGAGAAG: 0.236 ratio
CCUGCUCAGAUCACCAUGAAAGUAAUCCAAGGCCUAUAUAGUGGGGUCACCACAGUGGAACUGGACACUUUGGCUGCUGAGACAGCCGCAACCUUGACCACGAAGCACCCUGACUAUGCC: 0.125 ratio
ACUCAGAGAUCCACCUCAAUUGAAGUGCUGGAGCUCUGUGUGGCCACCACACCUAACUUGAUGGAUAUAUAUUUUUUUUAAUAUGAAUCUUCCUGUUCGUCCAGGGAAGAAAGAUUUGUU: 1.2 ratio
GAAUCCUACUCAGGCGGAUUUUGCAACACCAAGCUCACAGCAGCAGCUCCAUAGUCACAGUUAGGUAGUUUUGGGGCUCUGUGGCCAGGGUUUUAUUCACAUGCAGGUUUGGAAAAUGUA: 1.78 ratio
GCUCUUGGGAAUGUAAUAAGUGCCUUGGGGGACAAGAGCAAGAGGGCCACCCAUGUCCCUUACAGAGACUCUAAGCUGACAAGACUCUUGCAGGAUUCCCUUGGGGGUAACAGCCAAACC: 0.133 ratio
CUCAGAGAUGUGGCAUAUCAGUAUGUGAAAAAGGGGGCUCGUAUAUUUGUGGAAGGGAAAAUAGACUAUGGCGAGUACAUGGAUAAAAACAAUGUGAGGCGGCAAGCAACAACAAUCAUA: 0.425 ratio

Sample 3 — method: EMSA with sequencing; form: double-stranded DNA, one strand shown; sample: in vitro; tested at: 10 and 20 nM; baseline: negative control set to 0; reading: higher = stronger binding; measurement: normalised bound fraction
Target: Hepatocyte nuclear factor 3-alpha (Foxa1, Mus musculus, UniProt P35582, residues 1-468, full length assumed)
Sequence of UniProt P35582 (whole entry, looked up): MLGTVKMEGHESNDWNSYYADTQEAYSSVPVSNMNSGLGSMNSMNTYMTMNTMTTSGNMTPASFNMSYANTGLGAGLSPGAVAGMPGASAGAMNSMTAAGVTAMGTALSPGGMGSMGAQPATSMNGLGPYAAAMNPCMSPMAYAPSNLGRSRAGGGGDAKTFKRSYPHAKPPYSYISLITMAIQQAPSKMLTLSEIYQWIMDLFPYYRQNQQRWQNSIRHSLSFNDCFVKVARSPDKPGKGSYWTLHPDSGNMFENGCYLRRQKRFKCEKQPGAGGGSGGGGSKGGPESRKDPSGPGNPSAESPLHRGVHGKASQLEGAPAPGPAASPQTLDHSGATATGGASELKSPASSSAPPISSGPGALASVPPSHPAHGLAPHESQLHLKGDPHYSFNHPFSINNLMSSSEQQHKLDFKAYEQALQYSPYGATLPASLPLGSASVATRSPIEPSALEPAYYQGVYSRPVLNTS
Setting: whole designed probe, mean of two concentrations, ends assumed
Constant ends, left off below: GTGAGCGGTGCCCATTGATGGGGAAC … TTTCACTGGGATCGTGGGGAC
CGGCAGTGGGCGTGGCTAGGTGGGGCGGGACGGAGCCGCGGCGGAGGATGGGGCGGGGTTTCATGGGGTAAGCGGGGCCGAAATAGAGCCTGTTATTTACTCTGGTTCACAGGCAGCATGTCTTTGGTTTTCTGACTACTTCTTGTCCTGTGAAGCAGCGTTGCTGCCTGCCTATTTTAAGTTAATGTTTCAA: 0.219 ratio
AGTGCCAAGAACTGCCATTTACACTCGGAAGCGCTCCAGGGAAGGTTAATACTACTGTGATTAATACTGTTTACAGAGCCAATAAATTTTAGGTAAACACCCAAAGGAGAGTTAAAGAGTTGTCTCATCGGTCCCATAAAGGCTGGTAAAAGGGGCGGGGAATGGTTCCACGCCAACCCTGTCCGTCACCGCA: 0.276 ratio
ATACAGGTTTTATAACATATGTAGTTAAGGTTTCAAAAGTGAGATTATGTCTCAACTAACTATAACTGAAATAGAAGAGTGTATCTATTTCAATGTAATCTAGATGACTGATAATGAGAAAAATGATCCTTATAAAGAATAGCAAATCATGATCCTAAGACAGTAAGTGTCAAAGCTGATGGGAGGATGCTAT: -0.0635 ratio
AAGAAAGAAATTTCCCATCCAGATTACAAAATTATTCCTGGTCAAAGGGGCCTTTATAAATGCAATTTCCTAATCCAATCAAAAGACCACAAAAGTAATCTGGGAATTTCTCTGCTTTGGTTTAAAATTGTTTGTTTAAAATTACATGTGTGTGTGTAGGTATATACACATATATAAATATATTATAGACACT: 0.304 ratio
CTCTAAAGGAAGGCTAACTAGTTCACAGAGCCAAGGAATCCAATTTCAGAAACGCAGATAGGCAGAGTGGGTAAACAAAGCTGCACTGTAACTGTTTACTTTTCTTGCCAATTATTTGCCTAGCTGCTTCTCTCCATTCTCCAAGATCCAAAAGTGCAATTCACTGAACTATCAGTGTGGCAGCAAAATACCT: 0.482 ratio
TCAGAACACCTCTCTGACAAATCAATAGAAACAGAAACTCTTTGTATTGATGGATTTTCCAAGGTTCATATTATCAGTAAATTCAAAACAAAGTAAACAGAAAAAAGAACTAGGTCAACATTAGCGGTCAAGTAAGGTTACATTTTATAAGCAATGCAATTATATTAATTTGTTTTTAAGCAAATAATAAACT: 0.499 ratio
ACCCGCGTGCAAGGGGACCGAGCCCCGGGAAGGGGAAGAACTTGTAATCGCTTGCAGCGGGACAATGTCGACTTTTGAACCTCTAACCACTAAGCAAACAACCCATGTGCTCTTGCTCCACTGTCCAAACAGGGTTTATTGACAGGCGTTTCACGGCAACGCATAGCAACCCCGGCGGCTAGGGGGCGGGCCT: 0.434 ratio
ATCCACGAACCTGGCCCTGTCTGGTAACCACAGTGAACCATCGCAAGATACAGCACTATGTGCCCAGTTGGGCTGGTAATGTCACACAAATGTGTCAACACTGGTAATGACTCACGGACACGGAAGTGTACTTGTTTTTGGAGAGGGACTAGACCTTCATCCTTGAGGTGAAGAAGATTTTCTCTCCAGGGTG: 0.0531 ratio

Sample 4 — method: universal PBM; form: double-stranded DNA, one strand shown; sample: in vitro; tested at: 600 nM; reading: higher = stronger binding; measurement: E-score
Target: Sal-like protein 4, full length isoform A (SALL4, Homo sapiens, UniProt Q9UJQ4, residues 1-1053)
Sequence of UniProt Q9UJQ4 (whole entry, looked up): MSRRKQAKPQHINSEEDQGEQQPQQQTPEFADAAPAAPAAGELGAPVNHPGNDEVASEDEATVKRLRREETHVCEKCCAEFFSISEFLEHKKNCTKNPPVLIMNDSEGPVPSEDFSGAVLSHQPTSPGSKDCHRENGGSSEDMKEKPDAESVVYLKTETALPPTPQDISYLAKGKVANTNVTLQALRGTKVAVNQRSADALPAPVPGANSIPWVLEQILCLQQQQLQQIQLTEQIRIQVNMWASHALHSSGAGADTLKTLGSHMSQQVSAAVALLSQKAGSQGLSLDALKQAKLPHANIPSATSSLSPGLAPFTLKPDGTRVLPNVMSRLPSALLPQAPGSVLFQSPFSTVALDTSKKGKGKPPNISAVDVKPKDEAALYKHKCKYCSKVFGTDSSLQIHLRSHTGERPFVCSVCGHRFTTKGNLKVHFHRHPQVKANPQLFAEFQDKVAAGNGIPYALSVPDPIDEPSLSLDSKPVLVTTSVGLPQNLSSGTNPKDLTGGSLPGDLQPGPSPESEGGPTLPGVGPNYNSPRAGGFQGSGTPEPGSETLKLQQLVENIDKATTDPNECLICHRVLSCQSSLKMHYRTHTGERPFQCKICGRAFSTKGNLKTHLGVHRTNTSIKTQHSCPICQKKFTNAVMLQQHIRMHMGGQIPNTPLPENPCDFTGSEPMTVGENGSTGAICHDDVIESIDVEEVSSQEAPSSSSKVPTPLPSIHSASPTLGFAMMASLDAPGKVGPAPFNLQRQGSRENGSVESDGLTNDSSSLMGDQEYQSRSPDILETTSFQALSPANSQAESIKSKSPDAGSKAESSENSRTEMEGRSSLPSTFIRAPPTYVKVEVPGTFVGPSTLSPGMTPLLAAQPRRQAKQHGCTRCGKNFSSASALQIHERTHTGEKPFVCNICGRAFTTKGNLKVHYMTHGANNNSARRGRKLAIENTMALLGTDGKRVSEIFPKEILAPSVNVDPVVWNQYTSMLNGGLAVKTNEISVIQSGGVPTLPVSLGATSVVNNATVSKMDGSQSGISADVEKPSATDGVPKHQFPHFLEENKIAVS
Setting: 8-mer, flanks averaged, mean of replicates
ACTAATAG: 0.166
AATCGACT: 0.0114
CGGATTAG: -0.0289
CACAGTTA: 0.141
ACCGGACG: -0.207
TCTCTTAA: 0.139
CATCGTGC: -0.147
GATCAGCA: -0.0758
CCCGAGAC: -0.311
AGGGGGAA: -0.132
ACATTTGG: -0.0162
CTTGGACC: -0.302
CCAGTATA: 0.194
CAGATTAC: 0.138
AGAAGAGA: 0.0437
GTACCCTA: -0.00272
AGACACGA: 0.0225

For quick reference, copied from above (sample 1):
AGGUCCUGCCCAUCGGGCACAUGUCUCAAGCCCAUGGGGAGCAUAGCAGUCCGGGAGGCUGUGGAAAUGUUUAUUUAUAUUGUCCUUUUUUACCGAAGACAUGCAUACUC: 1.09
UUUCUGAAGCCUGCUUUUAUACCGGAUGUUCUAUAAAUUAUAACUUUUAAAGUUGGGCUUUUUAAUUACUUUACAAAUACCCAUGAGUGGGACAGAUGUUCUGAACCUGG: 0.556
AAAAUUUGAGGCAAAUUUUUUUAAAUGACAGAAAAAGAUAAUCAUCUCACUUGCUUGAAACAGGAGCCAGCAUGAUCUCUGGAAGCAUCAACUAUCCCUCGUCGUGAUUG: 3.62
UUUUUAAUGAUCAGCUUUUCUGUUUAUUGUAAAACUAAGUUAAAAAAUAAAAGGUUAAUGAGAAAUGAAAUGCUAACUGUAUUGACUGUGUACAAAGCUAAAGCAAGAAG: 1.13
UGGCCGCUGAGUGGCAGGGGACAGGAGUCCACUUUGUUUCGUGGGGAGGUCUAAUCUAGAUAUCGACUUGUUUUUGCACAUGUUUCCUCUAGUUCUUUGUUCAUAGCCCA: 0.434
